Published values from different studies.
Lines come from different studies, so protocols differ. ± gives the spread as reported.

`CCNc1nc(Cl)nc(NC(C)C)n1` has a remaining amount of 64.23 ± 0.01% (LC-MS/MS; herbicide solution; 2 h, 40 °C, together with: 254 nm UV exposure).
With `Oc1cc(Cl)c(-c2cc(Cl)ccc2Cl)cc1Cl` the serum concentration was 16 ± 14 ng/g (Sprague-Dawley rat, male, serum; subcutaneous implant, 1% in implant, 28 d, low dose group).
The Cmax of `CC[C@H](C)[C@H](NC(=O)[C@@H](N)CCCNC(=N)N)C(=O)N[C@H](C(=O)N1CCC[C@H]1C(=O)N[C@@H](C)C(N)=O)C(C)C` is reported as 13600 ng/mL (human, plasma; intravenous, 5 mg/kg, single dose, healthy volunteers).
`O=c1[nH]c(Cc2ccccn2)nc2c1cnn2C1CCOCC1` has an AUC(0-inf) of 3.92 µM·h (healthy men, extensive metabolizers, plasma; oral, 200 mg single dose, tablet, geometric mean).
`COc1ccc(C[C@@H]2NC(=O)[C@H]([C@@H](C)O)NC(=O)[C@@H]3[C@@H]4CCN3C(=O)[C@@H]3Cc5cn(c6ccc(F)cc56)CCCCCCN(Cc5ccc(cc5)CCNC(=O)[C@]5(C)CCCN5C2=O)C(=O)CCC(=O)N[C@@H](C)C(=O)N[C@H](CNC(=O)CCCCC[N+](C)(C)C)C(=O)N[C@@H](Cc2cccc(c2)CNC(=O)CO4)C(=O)N3)cc1` gave a CL/F of 416 mL/min (fasted healthy humans, plasma; oral, 10 mg single dose, with 1800 mg Labrasol, geometric mean).
`CN[C@@](C)(C[18F])C(=O)O` has a tissue uptake of 12 ± 4.4 %ID/g (SCID mouse A549 xenograft, spleen; 15 min, post injection).
`CC(C)C[C@@H](NC(=O)[C@@H](Cc1ccccc1)NC(=O)[C@H](N)Cc1ccccc1)C(=O)N[C@H](CCCCN)C(=O)N1CCC(N)(C(=O)O)CC1` — result for “total dose recovery, urine, feces and dialysate”: 83.8% (refers to: total radioactivity; human subjects on haemodialysis; intravenous, time not given).
The concentration found of `CC[C@H](C)[C@H](NC(=O)[C@H](CO)NC(=O)[C@H](C)NC(=O)[C@@H](NC(=O)CNC(=O)[C@H](CO)NC(=O)[C@@H](NC(=O)[C@@H](NC(=O)[C@H](Cc1c[nH]cn1)NC(=O)[C@@H]1CCCN1C(=O)[C@@H](NC(=O)[C@H](CC(C)C)NC(=O)[C@H](CO)NC(=O)[C@H](CC(C)C)NC(=O)[C@@H](N)Cc1ccccc1)[C@@H](C)CC)[C@@H](C)CC)C(C)C)C(C)C)C(=O)N[C@@H](C)C(=O)N[C@@H](CCCCN)C(=O)N[C@@H](Cc1c[nH]cn1)C(=O)N[C@@H](Cc1ccccc1)C(N)=O` is reported as 1540 ng/mL (UPLC-MS/MS; processed rat plasma in autosampler; 1.6 µg/mL, 8 h, 25 °C, post-preparative stability).
For `CCCCCOc1ccc(-c2cc(-c3ccc(C(=O)N[C@H]4C[C@@H](O)[C@@H](O)NC(=O)[C@@H]5[C@@H](O)[C@@H](C)CN5C(=O)[C@H]([C@H](O)CC(N)=O)NC(=O)[C@H]([C@H](O)[C@@H](O)c5ccc(O)c(OS(=O)(=O)O)c5)NC(=O)[C@@H]5C[C@@H](O)CN5C(=O)[C@H]([C@@H](C)O)NC4=O)cc3)no2)cc1`, “clearance at steady state” read 0.198 mL/min/kg (human children aged 6-11 years, plasma; intravenous, 3 mg/kg once daily, day 7, median).
`[123I]c1cncc(OC[C@@H]2CCN2)c1` gave a tissue/plasma ratio of 15.3 (SPECT; human, brain cortex; intravenous bolus, 9.1 mCi; reference: plasma).
`CC(C)[C@H](NC(=O)[C@H](Cc1c[nH]c2ccccc12)NC(=O)[C@@H](N)CCCNC(=N)N)C(=O)N[C@@H](Cc1c[nH]c2ccccc12)C(=O)NCC(=O)NCC(=O)NCC(=O)NCC(=O)N[C@@H](CCCCN)C(=O)N[C@@H](CCCCN)C(=O)NCC(=O)NCC(=O)NCC(=O)NCC(=O)N[C@@H](Cc1c[nH]c2ccccc12)C(=O)N[C@H](C(=O)N[C@@H](Cc1c[nH]c2ccccc12)C(=O)N[C@@H](CCC(=O)O)C(=O)O)C(C)C` gave a Tm of 51.8 ± 0.1 °C (circular dichroism; phosphate buffer; pH 6.5).
`CC(C)C(=O)OC[C@H]1O[C@@H](n2ccc(NO)nc2=O)[C@H](O)[C@@H]1O` has a remaining compound of 99.25 ± 0.36% (rat brain dialysate; 5 ng/mL, 6 h, 10 °C, autosampler stability, together with: NHC 25 ng/mL).

A few entries again:
`CN[C@@](C)(C[18F])C(=O)O` has a tissue uptake of 12 ± 4.4 %ID/g (SCID mouse A549 xenograft, spleen; 15 min, post injection).
